Measured values collected from several papers.
Parts stem from different laboratories: compare values within a part only. Several values in a cell are separate wells, animals, samples, runs or records.
Sequence of UniProt O75914 (whole entry, looked up): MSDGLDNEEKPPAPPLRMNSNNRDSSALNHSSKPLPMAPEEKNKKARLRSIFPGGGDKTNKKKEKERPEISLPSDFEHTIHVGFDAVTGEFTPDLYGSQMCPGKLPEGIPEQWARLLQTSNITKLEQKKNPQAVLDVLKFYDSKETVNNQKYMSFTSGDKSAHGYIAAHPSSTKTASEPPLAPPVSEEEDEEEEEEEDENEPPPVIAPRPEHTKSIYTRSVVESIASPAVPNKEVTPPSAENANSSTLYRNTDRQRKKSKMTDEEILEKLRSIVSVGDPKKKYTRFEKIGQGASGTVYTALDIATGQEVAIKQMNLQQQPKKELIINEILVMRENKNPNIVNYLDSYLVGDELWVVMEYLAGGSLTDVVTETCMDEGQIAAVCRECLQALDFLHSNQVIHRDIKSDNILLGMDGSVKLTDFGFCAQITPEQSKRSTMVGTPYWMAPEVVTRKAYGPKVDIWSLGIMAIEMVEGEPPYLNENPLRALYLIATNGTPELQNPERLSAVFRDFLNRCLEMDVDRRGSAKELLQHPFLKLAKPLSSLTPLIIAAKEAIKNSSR
Sequence of UniProt Q9Y5S2 (whole entry, looked up): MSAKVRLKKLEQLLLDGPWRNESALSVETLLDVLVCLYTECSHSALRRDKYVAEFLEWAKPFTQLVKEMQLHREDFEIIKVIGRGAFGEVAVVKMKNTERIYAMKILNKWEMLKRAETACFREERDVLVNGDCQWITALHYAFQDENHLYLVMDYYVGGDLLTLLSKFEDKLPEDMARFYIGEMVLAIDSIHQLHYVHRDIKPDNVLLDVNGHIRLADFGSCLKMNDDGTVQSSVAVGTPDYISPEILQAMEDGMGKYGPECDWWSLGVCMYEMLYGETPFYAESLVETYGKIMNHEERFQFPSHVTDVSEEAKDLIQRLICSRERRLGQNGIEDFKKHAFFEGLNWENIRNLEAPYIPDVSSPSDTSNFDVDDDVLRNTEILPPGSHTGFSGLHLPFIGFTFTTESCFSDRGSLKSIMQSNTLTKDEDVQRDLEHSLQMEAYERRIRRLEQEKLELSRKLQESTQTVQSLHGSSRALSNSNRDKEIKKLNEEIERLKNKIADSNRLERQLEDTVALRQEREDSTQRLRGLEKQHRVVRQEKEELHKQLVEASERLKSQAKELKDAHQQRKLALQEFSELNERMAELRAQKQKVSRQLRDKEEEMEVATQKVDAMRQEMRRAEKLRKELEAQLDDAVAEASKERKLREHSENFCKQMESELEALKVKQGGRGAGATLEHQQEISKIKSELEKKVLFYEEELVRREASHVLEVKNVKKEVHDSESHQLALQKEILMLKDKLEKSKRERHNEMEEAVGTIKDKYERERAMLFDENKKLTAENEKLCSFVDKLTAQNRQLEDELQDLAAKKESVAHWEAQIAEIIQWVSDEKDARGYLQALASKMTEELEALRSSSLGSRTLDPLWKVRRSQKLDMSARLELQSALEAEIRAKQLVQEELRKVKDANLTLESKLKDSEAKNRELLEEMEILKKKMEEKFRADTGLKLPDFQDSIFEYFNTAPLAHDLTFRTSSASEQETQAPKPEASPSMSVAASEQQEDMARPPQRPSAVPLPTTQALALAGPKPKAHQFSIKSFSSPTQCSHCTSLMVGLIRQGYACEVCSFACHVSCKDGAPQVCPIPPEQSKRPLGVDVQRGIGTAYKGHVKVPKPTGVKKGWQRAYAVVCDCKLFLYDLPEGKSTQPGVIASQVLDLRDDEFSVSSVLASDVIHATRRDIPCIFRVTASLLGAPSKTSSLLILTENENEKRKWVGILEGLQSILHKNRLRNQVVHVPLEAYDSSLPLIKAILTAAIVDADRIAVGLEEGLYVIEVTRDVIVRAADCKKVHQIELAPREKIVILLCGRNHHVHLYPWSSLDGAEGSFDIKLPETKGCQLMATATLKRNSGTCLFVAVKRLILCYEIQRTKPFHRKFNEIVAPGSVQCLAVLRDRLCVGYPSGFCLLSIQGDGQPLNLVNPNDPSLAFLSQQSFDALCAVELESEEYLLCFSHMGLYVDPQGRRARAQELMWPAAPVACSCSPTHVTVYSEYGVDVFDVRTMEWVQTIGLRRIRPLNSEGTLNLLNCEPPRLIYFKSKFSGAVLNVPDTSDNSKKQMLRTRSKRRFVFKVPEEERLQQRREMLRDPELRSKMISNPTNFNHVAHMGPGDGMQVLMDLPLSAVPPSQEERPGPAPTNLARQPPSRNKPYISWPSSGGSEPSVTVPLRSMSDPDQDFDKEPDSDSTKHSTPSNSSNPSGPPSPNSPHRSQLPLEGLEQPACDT
Sequence of UniProt Q6P2M8 (whole entry, looked up): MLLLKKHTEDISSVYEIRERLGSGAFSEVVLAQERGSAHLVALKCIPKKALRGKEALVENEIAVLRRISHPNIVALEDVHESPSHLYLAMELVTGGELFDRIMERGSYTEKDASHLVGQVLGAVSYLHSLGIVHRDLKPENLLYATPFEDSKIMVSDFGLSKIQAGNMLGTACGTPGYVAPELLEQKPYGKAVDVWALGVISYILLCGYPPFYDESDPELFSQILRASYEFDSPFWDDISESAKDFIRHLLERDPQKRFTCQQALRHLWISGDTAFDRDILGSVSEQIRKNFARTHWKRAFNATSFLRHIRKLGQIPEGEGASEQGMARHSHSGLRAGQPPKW
Sequence of UniProt O75676 (whole entry, looked up): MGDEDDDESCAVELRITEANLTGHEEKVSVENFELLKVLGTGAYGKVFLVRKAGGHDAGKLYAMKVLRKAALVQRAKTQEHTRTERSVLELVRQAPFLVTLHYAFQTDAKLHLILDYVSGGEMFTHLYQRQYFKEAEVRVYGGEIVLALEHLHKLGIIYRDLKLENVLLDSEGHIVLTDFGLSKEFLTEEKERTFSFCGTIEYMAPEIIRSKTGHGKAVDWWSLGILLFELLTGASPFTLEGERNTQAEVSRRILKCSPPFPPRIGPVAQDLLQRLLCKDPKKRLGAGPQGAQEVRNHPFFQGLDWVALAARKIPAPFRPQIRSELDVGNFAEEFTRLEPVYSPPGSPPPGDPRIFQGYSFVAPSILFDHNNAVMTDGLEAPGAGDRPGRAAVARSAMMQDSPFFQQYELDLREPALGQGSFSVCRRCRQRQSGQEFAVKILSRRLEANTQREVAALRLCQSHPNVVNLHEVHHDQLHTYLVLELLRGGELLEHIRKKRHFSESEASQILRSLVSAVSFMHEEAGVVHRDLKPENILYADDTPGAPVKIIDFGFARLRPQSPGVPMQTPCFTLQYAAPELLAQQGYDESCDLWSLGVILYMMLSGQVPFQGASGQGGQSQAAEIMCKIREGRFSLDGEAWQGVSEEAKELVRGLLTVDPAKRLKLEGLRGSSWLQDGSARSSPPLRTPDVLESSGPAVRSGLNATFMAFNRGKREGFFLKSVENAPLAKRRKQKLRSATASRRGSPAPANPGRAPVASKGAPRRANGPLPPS
Sequence of UniProt P42681 (whole entry, looked up): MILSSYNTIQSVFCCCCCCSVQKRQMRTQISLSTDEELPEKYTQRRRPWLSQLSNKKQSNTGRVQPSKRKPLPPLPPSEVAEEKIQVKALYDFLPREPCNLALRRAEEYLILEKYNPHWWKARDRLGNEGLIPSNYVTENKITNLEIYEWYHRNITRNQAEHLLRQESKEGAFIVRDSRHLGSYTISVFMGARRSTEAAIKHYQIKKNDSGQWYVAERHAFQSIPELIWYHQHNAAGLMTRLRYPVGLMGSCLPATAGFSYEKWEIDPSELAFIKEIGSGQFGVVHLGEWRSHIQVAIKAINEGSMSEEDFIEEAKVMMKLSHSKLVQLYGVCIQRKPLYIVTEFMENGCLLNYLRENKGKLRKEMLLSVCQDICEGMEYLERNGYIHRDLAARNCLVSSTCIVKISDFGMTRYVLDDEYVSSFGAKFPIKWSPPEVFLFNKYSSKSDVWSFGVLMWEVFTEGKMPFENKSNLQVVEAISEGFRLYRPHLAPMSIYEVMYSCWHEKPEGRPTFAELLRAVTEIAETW
Sequence of UniProt P06493 (whole entry, looked up): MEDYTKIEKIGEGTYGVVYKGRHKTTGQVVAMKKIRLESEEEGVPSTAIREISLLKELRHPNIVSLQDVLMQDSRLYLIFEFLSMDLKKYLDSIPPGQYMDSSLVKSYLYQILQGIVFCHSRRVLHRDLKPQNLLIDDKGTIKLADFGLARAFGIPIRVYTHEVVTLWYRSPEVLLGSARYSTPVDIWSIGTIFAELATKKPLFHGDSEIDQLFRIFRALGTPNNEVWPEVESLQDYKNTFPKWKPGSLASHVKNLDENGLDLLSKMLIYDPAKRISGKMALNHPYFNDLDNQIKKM
Sequence of UniProt P49761 (whole entry, looked up): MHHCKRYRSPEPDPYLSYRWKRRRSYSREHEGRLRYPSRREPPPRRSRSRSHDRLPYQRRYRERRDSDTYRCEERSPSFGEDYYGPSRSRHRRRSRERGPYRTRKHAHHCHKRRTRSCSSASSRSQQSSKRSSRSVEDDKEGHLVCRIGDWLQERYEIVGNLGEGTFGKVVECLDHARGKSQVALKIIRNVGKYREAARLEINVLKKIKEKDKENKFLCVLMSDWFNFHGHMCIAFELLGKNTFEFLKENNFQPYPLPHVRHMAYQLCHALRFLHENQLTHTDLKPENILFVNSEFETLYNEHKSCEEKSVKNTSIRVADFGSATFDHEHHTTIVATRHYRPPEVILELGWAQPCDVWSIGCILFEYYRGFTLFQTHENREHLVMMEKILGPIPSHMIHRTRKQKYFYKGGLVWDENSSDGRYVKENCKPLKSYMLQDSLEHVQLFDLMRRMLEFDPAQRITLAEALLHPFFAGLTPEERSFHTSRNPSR

Series 1 — cell line: normal organoid sample H; technique: CellTiter-Glo; host: human; medium: normal-adjacent epithelium; concentration: 1 µM; relative to: DMSO
SMILES | viability
CO[C@@H](C)c1c(Nc2ccc([C@H](N(C)C(=O)C3CCS(=O)(=O)CC3)C(F)(F)F)cc2)cnc2cc(Cl)nn12 | 93.1% and 84.8%
Cn1nc(C(=O)NCc2ccc(C(=O)O)cc2)cc1-c1ccc2[nH]ccc2c1 | 83.7%
Cc1ccc2nc(CNCCCOc3ccccc3)cc(O)c2c1 | 135% and 165%
C[C@H](c1cccc(C#N)c1)n1cc(Cl)cc(C(N)=O)c1=N | 113% and 102%
C[C@@H]1CN(c2cc(-c3nn(C)c4ccc(OC5(C)CC5)cc34)ncn2)C[C@H](C)O1 | 95.6%

Series 2 — organism: Sarcocystis neurona; observed: parasite growth; concentration: 10 µM; time: 96 h; notes: first screen; relative to: untreated
SMILES | log2 fold change
CCCNC(C)C(=O)Nc1ccccc1C (stereo not shown) | 0.06
C=CC[C@@H]1/C=C(\C)C[C@H](C)C[C@H](OC)[C@H]2O[C@@](O)(C(=O)C(=O)N3CCCC[C@H]3C(=O)O[C@H](/C(C)=C/[C@@H]3CC[C@@H](O)[C@H](OC)C3)[C@H](C)[C@@H](O)CC1=O)[C@H](C)C[C@@H]2OC | -0.75
CC1(C)O[C@@H]2[C@@H](CO[C@@]3(COS(N)(=O)=O)OC(C)(C)O[C@@H]23)O1 | 0.04
CC(C(O)c1ccc(O)cc1)N1CCC(Cc2ccccc2)CC1 (stereo not shown) | -0.12
COC(=O)Nc1nc2ccc(C(=O)c3ccccc3)cc2[nH]1 | 0.19

Series 3 — cell line: mouse MPNST tumor cells; technique: high-content nuclear imaging; measured: cell number; concentration: 10 µM; time: 12 h; notes: mean of 2 replicates; relative to: plate mean; direction: higher = more cells
SMILES | nuclei count [z-score]
CCCCC[C@H](O)/C=C/[C@H]1[C@H](O)CC(=O)[C@@H]1CCCCCCC(=O)O | -1.13
CN(C)CCN(Cc1ccc(-c2ccc(CNCCc3ccccc3)cc2)cc1)C(=O)CCC1CCCC1 | -6.36
C#C[C@]1(O)CC[C@H]2[C@@H]3CCC4=CC(=O)CC[C@@H]4[C@H]3CC[C@@]21C | 0.19
COc1cc(N2CCN(C)CC2)ccc1Nc1nccc(-c2cn(C)c3cnccc23)n1 | 0.476
CC1(C)O[C@@H]2C[C@H]3[C@@H]4CCC5=CC(=O)CC[C@]5(C)[C@@]4(F)[C@@H](O)C[C@]3(C)[C@]2(C(=O)CCl)O1 | 2.44

Series 4 — observed: enzyme activity; mode: inhibitor; concentration: 0.5 µM; relative to: control
Structure (SMILES): O=C1NC(=O)C(c2c[nH]c3ccccc23)=C1c1c[nH]c2ccccc12
target | remaining activity
PNCK (Homo sapiens, UniProt Q6P2M8) | 93.3%
TXK (Homo sapiens, UniProt P42681) | 101%
GRK4 (Homo sapiens, UniProt P32298) | 97.1%
CLK3 (Homo sapiens, UniProt P49761) | 102%
KDR (Homo sapiens, UniProt P35968) | 60.8%
PAK3 (Homo sapiens, UniProt O75914) | 97.4%
MAPK14 (Homo sapiens, UniProt Q16539) | 109%
CDC42BPB (Homo sapiens, UniProt Q9Y5S2) | 99%
Cyclin-dependent kinase 9, with cyclin K (CDK9, Homo sapiens, UniProt P50750) | 80%
RPS6KA4 (Homo sapiens, UniProt O75676) | 87.4%
MARK2 (Homo sapiens, UniProt Q7KZI7) | 88.9%
Cyclin-dependent kinase 1, with cyclin A (CDK1, Homo sapiens, UniProt P06493) | 96.3%
MAPK1 (Homo sapiens, UniProt P28482) | 90.5%

Some of these lines once more (series 2):
SMILES | log2 fold change
COC(=O)Nc1nc2ccc(C(=O)c3ccccc3)cc2[nH]1 | 0.19
C=CC[C@@H]1/C=C(\C)C[C@H](C)C[C@H](OC)[C@H]2O[C@@](O)(C(=O)C(=O)N3CCCC[C@H]3C(=O)O[C@H](/C(C)=C/[C@@H]3CC[C@@H](O)[C@H](OC)C3)[C@H](C)[C@@H](O)CC1=O)[C@H](C)C[C@@H]2OC | -0.75
CC(C(O)c1ccc(O)cc1)N1CCC(Cc2ccccc2)CC1 (stereo not shown) | -0.12
